Measurements from different studies.
Every numbered part comes from another study and shows a few of its results, in no order. Positions count from the first letter of the parent shown.

Study 1
Target: Ras GTPase-activating protein-binding protein 1, RRM domain (G3BP1, Homo sapiens, UniProt Q13283)
UniProt Q13283, sequence (whole entry, looked up): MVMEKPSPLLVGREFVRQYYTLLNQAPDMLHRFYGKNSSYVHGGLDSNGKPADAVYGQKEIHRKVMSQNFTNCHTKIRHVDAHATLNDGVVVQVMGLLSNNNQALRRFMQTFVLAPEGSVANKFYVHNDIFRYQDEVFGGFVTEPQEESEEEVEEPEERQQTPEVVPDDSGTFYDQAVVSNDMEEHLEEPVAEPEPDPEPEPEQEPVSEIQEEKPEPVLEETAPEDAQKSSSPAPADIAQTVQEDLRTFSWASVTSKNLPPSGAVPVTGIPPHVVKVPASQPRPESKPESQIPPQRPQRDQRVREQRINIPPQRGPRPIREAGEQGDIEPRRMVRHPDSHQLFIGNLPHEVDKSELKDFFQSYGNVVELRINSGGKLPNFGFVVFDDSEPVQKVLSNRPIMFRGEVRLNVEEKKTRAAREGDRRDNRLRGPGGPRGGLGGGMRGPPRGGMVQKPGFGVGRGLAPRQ
Technique: RNA Bind-n-Seq
Molecule type: RNA
Medium: in vitro
Tested at: 1 µM
Setting: whole 134-nt RNA, ends assumed
With: 150 mM KCl
Baseline: input library
Reading: higher = stronger binding
Shared flanks, not repeated: GGGAGUUCUACAGUCCGACGAUC … UGGAAUUCUCGGGUGUCAAGG
| Oligonucleotide | log2 enrichment |
| --- | --- |
| UGGGAGGUGGAUUUUGUUUAUUUUUUUAGCUCAUUUCCAGGGGUGGGAAUUUCUUUUUAAUAUGUGUCAUGAAUAAAGUUGUUUUUGAAA | 2.22 |
| AGUCCUGUGCUACACAUCGUAUGUACCGAAUCGGGUUUUGGGUUUUGGGGUUUUGGGAAAGUAUUAUGUUACGCCGUUCGGAUCUGCACU | 0.322 |
| AGUCCUGUGCUACACAUCGUAUGUACCGAAUCGGAAAAAAAGGAAAAAGGUUUUUGGAAAGUAUUAUGUUACGCCGUUCGGAUCUGCACU | -0.0189 |
| UAACUUCAGAGGAGGAUCUGAUGGAUAUGGCAGUGGACGUGGAUUUGGGGAUGGCUAUAAUGGGUAUGGAGGAGGACCUGGAGGUGGCAA | -1.02 |
| ACCAUGCAAAUGGGCAUCUUUGGGAAGUGGGGCAAGGGGGGGAUAGGGAGGGGGGUAACACUUUGGGAACAGGUGGUCCCAGGUCGUUUC | -0.356 |
| AAGUCCUGUGCUACACAUCGUAUGUACCGAAUCGGGAAAAAGGGUUUGGGAAAGGGAAAGUAUUAUGUUACGCCGUUCGGAUCUGCACUU | 0.484 |
| UGGGAGGUGGAUUUUGUUUAUUUUUUUAGCUCGUUUCCAGGGGUGGGAAUUUUUUUUUAAUAUGUGUCAUGAAUAAAGUUGUUUUUGAAA | 2.03 |
| ACCAUACAGGUGGGCAUCUUUGGGAAGUGGGGCAAGGGGGGGAUAGGGAGGGGGGUAACACUUUGGGAACAGGUGGUCCCAGGUCGUUUC | -0.605 |
| UCCUGUGCUACACAUCGUAUGUACCGAAUCAAACCCAAAUUUUUUUAAAUUUUUUUAAAAAAGUAUUAUGUUACGCCGUUCGGAUCUGCA | -0.342 |
| CUCAAGUCCUGUGCUACACAUCGUAUGUACCGAAUCGGGGCGGGCGGGGCGGGGAAAGUAUUAUGUUACGCCGUUCGGAUCUGCACUUCC | 0.51 |
| AAGUCCUGUGCUACACAUCGUAUGUACCGAAUCGGGGAAAGGGGUGGGGAAAGGGGAAAGUAUUAUGUUACGCCGUUCGGAUCUGCACUU | 0.986 |
| UAACUUUAGAGGAGGAUCUGAUGGAUAUGGCAGUGGACGUGGAUUUGGGGUUGGCUAUAAUGGGUAUGGAGGAGGACCUGGAGGUGGCAA | -0.604 |
| UCCUCAAGUCCUGUGCUACACAUCGUAUGUACCGAAUCGGCGGCGGGGCGGAAAGUAUUAUGUUACGCCGUUCGGAUCUGCACUUCCAGC | -0.233 |
| AGUCCUGUGCUACACAUCGUAUGUACCGAAUCGGGAAAAAGGGAAAAAAAGGGUGGGAAAGUAUUAUGUUACGCCGUUCGGAUCUGCACU | 0.707 |

Study 2
Target: Histone acetyltransferase KAT6A, both winged helices, GST fusion (KAT6A, Homo sapiens, UniProt Q92794, residues 1-181)
Technique: protein binding microarray
Molecule type: double-stranded DNA, one strand shown
Medium: in vitro
Tested at: not given
Setting: 8-mer, flanks averaged, mean of 2 arrays, mostly near background
Baseline: not given
Reading: higher = stronger binding
Construct (chain): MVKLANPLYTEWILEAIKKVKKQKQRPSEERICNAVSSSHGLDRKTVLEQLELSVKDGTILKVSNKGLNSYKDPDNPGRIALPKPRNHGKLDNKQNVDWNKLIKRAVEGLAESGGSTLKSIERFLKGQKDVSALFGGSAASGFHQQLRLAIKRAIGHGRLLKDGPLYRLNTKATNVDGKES
| Oligonucleotide | E-score |
| --- | --- |
| CGGTACCG | 0.246 |
| GACAACCA | -0.0625 |
| AATAGTCG | 0.0431 |
| AAGCATGT | -0.0914 |
| AATGGAGC | -0.0928 |
| CTACTCCA | -0.152 |
| GATACGGA | 0.139 |
| AAGCCGAC | 0.191 |
| GAATATTC | 0.213 |
| GCGAGGAA | 0.139 |
| CTATTCAA | -0.14 |
| CTTTTACA | -0.00615 |
| CCTGGAGC | -0.0746 |
| AACTTGTC | 0.021 |
| CTTCCGCA | 0.1 |
| GGACTACC | 0.00743 |

Study 3
Target: ABI1, truncated, D143A, DHFR fusion (Arabidopsis thaliana)
Technique: DHFR PCA, deep sequencing
Medium: yeast
Setting: methotrexate growth selection, single substitutions
With: (+)-ABA 2500 µM
Baseline: wild-type fitted maximum
Reading: higher = stronger binding
Parent: PYL1, truncated, DHFR fusion (Arabidopsis thaliana); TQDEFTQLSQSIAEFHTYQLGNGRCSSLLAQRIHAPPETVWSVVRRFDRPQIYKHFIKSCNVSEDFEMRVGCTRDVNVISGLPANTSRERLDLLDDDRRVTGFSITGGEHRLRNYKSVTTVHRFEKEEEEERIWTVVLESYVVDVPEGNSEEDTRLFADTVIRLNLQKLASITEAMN
| Change | relative binding score [%] |
| --- | --- |
| G21Q | 93.4 |
| L112A | 39.1 |
| S80T | 95.7 |
| I79L | 93.2 |
| D75T | 94 |
| N114H | 100 |
| R88F | 94.4 |
| F157H | 53.2 |
| V161M | 91.8 |
| G107Y | 83.3 |
| Q51E | 99.7 |
| T17G | 95.8 |
| R113E | 103 |
| V78M | 91.1 |
| V118D | 42.8 |
| R45K | 101 |
| Y18E | 99.2 |

Study 4
Target: RNA binding protein fox-1 homolog 2, RRM domain, GST-SBP tag (RBFOX2, Homo sapiens, UniProt O43251-10, residues 100-194)
Technique: RNA Bind-n-Seq
Molecule type: RNA
Medium: in vitro
Tested at: 365 nM
Setting: natural RNA segment, single round, ends assumed
Baseline: no-protein control
Reading: higher = stronger binding
Shared flanks, not repeated: GGGAGUUCUACAGUCCGACGAUC … UGGAAUUCUCGGGUGCCAA
Residues (chain): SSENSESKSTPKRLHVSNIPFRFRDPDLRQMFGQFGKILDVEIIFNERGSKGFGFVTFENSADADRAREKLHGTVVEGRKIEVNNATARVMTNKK
| Oligonucleotide | RBNS enrichment (R) |
| --- | --- |
| GACAAGCUGUCUUUCCCAGUCAGCCAGGGAGCUCCCCGCCAGGCCACGCCCCAGCCACUUUGCUCCCUCUCACCUCUGGGAAGUGCAAAUACUCUUGGUUGACAUCCCCU | 0.3 |
| CCCCCAGUGCAUUUCUUCACAGUGAAGAAAAGGAAAAAUUUCAAAACAAUACUUUUUGUAUUAUCUAGAGUCAGCCCACUUCAACAGAUUUUUCUCUCACUAACUGAAAG | 0.72 |
| ACAAAACGGUAAUGAACAGAUAGCACUGGGGCAGAAUAUGCAUGCAUUUUGUAACGUCCAGUGUGGCGUUGAAUAGAUGUGUAUUUCCUCCCCUGCAGAAAAUAAGCACA | 1.24 |
| UGGGUAUUGCAGGAUGCUGAUUGAACAGCACCUGUGACCUUUCCUGCUCCAUGCCACUAGCAACCUCCUGCCAUGUGUGGCAGUCACAAAGGUCAUCAGAAUGGAGUGAG | 0.251 |
| GGUAGGGAAGCAGCAUAGGCCCCCAGGGAAACGACUCCACAGCAGGGCCUUCAUGGAUCUCCAAGUCUCUCAGUCUGGUCCAGCAGGUUCUCUGCUCAAAGCUGCCUGUC | 0.345 |
| GCAAGAGUGCCUCCUGUAGCAGUUUUAACCAAAUUUCAUUCCCCUGGUACCGUGGAGCUUUAUUUUGCUAUUGAACGCCAAGCUGAAUGUGAGUGACAGGGAACAAUCCC | 0.537 |
| UUCCUUUUUCCUUCUAUGUCCCCUCUCUGCGGGGGGGGCGCUGAGGCUGAGGGGGAGCUGCGUCUUGCUAGGGCUUCCCCCUUCUCCCCAUCCCGGUCUCCAGAGACCCA | 2.04 |
| UUCUGUAUACGUAAUUACUCCUGAUUUUCUGAAAUUGCUUCUGGUAGAUAACAGACAAGUCCUAAGCAGUGUUCCACUAAGGGUGGUUCCAGGCCUGCCUGCCGUGGAGU | 0.721 |
| UGUGGCCUGUUUGUGCUGUCCUGCAUCCAGUGUGUUGGCCUGGCUAAGUGAAAACGGUGAGCUGUUUCCCCUUUGGGCUACUUAACCACGGCUACUCCUUUUUUAAAAAU | 0.308 |
| CUGCUAAUUGUCGAGAGAGAAUUCAGUUGUGUGCUGUCUGGCUGCUGUGCCUUCUCAGCAGCACUUUUGCUGUACAUACAAUGGAAAUAAAGACCUCAGCUAGAAACCUG | 0.399 |
| AAGAUGAUGUUAAUUUGCUGUCAUUUCCUAAUUCAGGAUCUAUCAUCAAAUGAAACAUGAAAAAAACAGUGACUUUUAAGGUGAAAAGAGUUUCAAGCAUUCCAAAUAAA | 0.373 |
| GCUCAGACACCAUUACUUUUGUGAACGCUUCUGCCACAUCUUGUCUUCCCCAAAAUUGAUCACUCCGCCUUCUCCUGGGCUCCCGUAGCACACUAUAACAUCUGCUGGAG | 0.489 |

Study 5
Target: Sal-like protein 4, full length isoform B (SALL4, Homo sapiens, UniProt Q9UJQ4-2, residues 1-616)
Technique: universal PBM
Molecule type: double-stranded DNA, one strand shown
Medium: in vitro
Tested at: not given
Setting: 8-mer, flanks averaged, mean of replicates
Reading: higher = stronger binding
| Oligonucleotide | E-score |
| --- | --- |
| GGAACATA | 0.181 |
| GGAATTAC | 0.0575 |
| GGAAAAGA | 0.0425 |
| CGCAGGTC | -0.301 |
| GAGGCGGA | -0.147 |
| ACGTTTCC | -0.0524 |
| CATTTGAC | 0.119 |
| TGTACGAA | 0.224 |
| CGTTCTCC | -0.133 |
| CTATTCAG | 0.113 |
| AAATATCA | 0.33 |
| AACTTATC | 0.207 |
| CAACAAGC | -0.0942 |
| CTAATTAG | 0.173 |
| ACATCCAG | 0.0349 |
| CTACAGCC | -0.142 |
| CCTGTGTA | 0.192 |
| AGTCATAC | 0.14 |
| CCGGTCAC | -0.295 |
| TCTAAGCA | -0.0686 |
| TCTCGGAA | -0.025 |
| AGCGTCGG | -0.116 |
| ATCGCAGA | 0.00953 |
| AGGTATTC | 0.0357 |
| CCGATAAC | 0.0131 |

Repeated from above (study 5):
| Oligonucleotide | E-score |
| --- | --- |
| GGAACATA | 0.181 |
| GGAATTAC | 0.0575 |
| GGAAAAGA | 0.0425 |
| CGCAGGTC | -0.301 |
| GAGGCGGA | -0.147 |
| ACGTTTCC | -0.0524 |
| CATTTGAC | 0.119 |
| TGTACGAA | 0.224 |
| CGTTCTCC | -0.133 |
